Published values gathered from unrelated publications.
Each line is one published result; not all experiments were run side by side. Several values in a cell are separate wells, animals, samples, runs or records. ± marks the error that the study gave.

Structure (SMILES)	cell line	test	setting	how to read	inhibition
C[C@@H](Oc1cc(-c2cnn(C3CCNCC3)c2)cnc1N)c1c(Cl)ccc(F)c1Cl	KARPAS-299	cell growth or viability, MTT	20 µg/mL		96.9%
COC(=O)C[C@H](NC(=O)[C@H](C)NC(=O)[C@@H](NC(=O)OCc1ccccc1)C(C)C)C(=O)CF	glioblastoma cells	caspase-3/7 activation, CellEvent fluorescence	100 µM, added: MED2		65%
O=C(Cc1ccc(F)cc1)Nc1nc2ccccc2n1Cc1ccc(Cl)cc1	MDA-MB-231-HRE-Luc	HIF reporter gene, inhibitor, HRE luciferase reporter	10 µM, hypoxia	relative to: untreated	> 50%
CCCOCc1ccc(C=O)o1	human sickle red blood cells	sickling	2 mM, 2 h, 37 °C, hematocrit 20%, 4% oxygen		62.9% and > 54%
CCCCC[C@@H](O)[C@H]1C(=O)O[C@H](C)[C@@H](O)/C=C/C=C/C=C/C=C/C=C(\C)[C@@H](O)C[C@H](O)C[C@H](O)C[C@H](O)C[C@H](O)C[C@H](O)C[C@@H]1O	MCEC mouse	transfection reporter gene	1.0 µg/mL, 1 h	relative to: vehicle	88.4%
COc1ccc2c(c1)c(CC(=O)O)c(C)n2C(=O)c1ccc(Cl)cc1	human erythrocytes	hypotonicity-induced hemolysis	1000 µg/mL, 1 h		98.9%
COCc1ccc(C=O)o1	human sickle red blood cells	sickling	2 mM, 2 h, 37 °C, hematocrit 20%, 4% oxygen		35.3 ± 6.1%
O=C(Cc1ccc(Cl)cc1)Nc1nc2ccccc2n1Cc1ccc(Cl)cc1	MDA-MB-231-HRE-Luc	HIF reporter gene, inhibitor, HRE luciferase reporter	10 µM, hypoxia	relative to: untreated	> 50%
Cc1cc(-c2ccccc2)c2c(n1)C1(CCCCC1)NC2=O	human erythrocytes	hypotonicity-induced hemolysis	100 µg/mL, 1 h		69.2%
C/C(=N\N=c1/[nH]c(C)cs1)c1ccccn1	HepG2	cell growth or viability, SRB	100 µg/mL, 48 h		72%
O=C1CCC(=O)C2(CCCCC2)N1	human erythrocytes	hypotonicity-induced hemolysis	800 µg/mL, 1 h		78.2%
CCN1C(=O)/C(=C\c2ccc(OC)c(OC)c2)S/C1=N/N=C(\C)c1ccccn1	HepG2	cell growth or viability, SRB	100 µg/mL, 48 h		69.8%
COC(=O)c1cc(OC)c2c(c1-c1c(CO)cc(OC)c3c1OCO3)OCO2	WB-F344 rat liver	hepatocyte damage	10 µM, added: D-galactosamine		66%
C#CCOc1ccc(/C=C/C(=O)N2CCC(Cc3ccccc3)CC2)cc1OC	BV-2	NO release, inhibitor, Griess	10 µM, LPS-stimulated		55.7%
O=C1NC2(CCCCC2)c2[nH]c(=S)nc(-c3ccccc3)c21	human erythrocytes	hypotonicity-induced hemolysis	400 µg/mL, 1 h		78.8%
CC(C)Oc1ccc(S(=O)(=O)c2ccc(Oc3cc(OCC(N)=O)c(C(=O)C(Cl)Cl)cc3[N+](=O)[O-])cc2)cc1	NCI-H1975	cell growth or viability, MTT	2.5 µM		> 95%
O=C1NC2(CCCCC2)c2nc3c(c(-c4ccccc4)c21)CCCC3	human erythrocytes	hypotonicity-induced hemolysis	600 µg/mL, 1 h		86.4%
COc1ccc(CC(=O)Nc2nc3ccccc3n2Cc2ccccc2)cc1	MDA-MB-231-HRE-Luc	HIF reporter gene, inhibitor, HRE luciferase reporter	10 µM, hypoxia	relative to: untreated	> 50%
NC1=NC(=S)NC12CCCCC2	human erythrocytes	hypotonicity-induced hemolysis	200 µg/mL, 1 h		89.9%
CCn1c(-c2ccc(Br)cc2)cs/c1=N/N=C(\C)c1ccccn1	HepG2	cell growth or viability, SRB	100 µg/mL, 48 h		67.2%

Some of these lines once more:
Structure (SMILES)	cell line	test	setting	how to read	inhibition
O=C(Cc1ccc(Cl)cc1)Nc1nc2ccccc2n1Cc1ccc(Cl)cc1	MDA-MB-231-HRE-Luc	HIF reporter gene, inhibitor, HRE luciferase reporter	10 µM, hypoxia	relative to: untreated	> 50%
Cc1cc(-c2ccccc2)c2c(n1)C1(CCCCC1)NC2=O	human erythrocytes	hypotonicity-induced hemolysis	100 µg/mL, 1 h		69.2%
